{"data": "Assay results pooled from the literature", "note": "Each numbered part is a random draw from the data of one study; scales do not carry over between parts. Substitutions count along the parent as printed."}
{"data": "Block 1", "target": "Phosphate system positive regulatory protein PHO4, full length, GST-tagged (PHO4, Saccharomyces cerevisiae, UniProt P07270, residues 1-312)", "method": "competition protein-binding microarray", "form": "double-stranded DNA, one strand shown", "sample": "in vitro", "tested at": "2 µM", "notes": "whole 60-bp probe, lowest competitor level", "with": "Cbf1 competitor, 0.05 µM", "reading": "higher = stronger binding", "constant ends, left off below": "… GTCTTGATTCGCTTGACGCTGCTG", "Construct (chain)": "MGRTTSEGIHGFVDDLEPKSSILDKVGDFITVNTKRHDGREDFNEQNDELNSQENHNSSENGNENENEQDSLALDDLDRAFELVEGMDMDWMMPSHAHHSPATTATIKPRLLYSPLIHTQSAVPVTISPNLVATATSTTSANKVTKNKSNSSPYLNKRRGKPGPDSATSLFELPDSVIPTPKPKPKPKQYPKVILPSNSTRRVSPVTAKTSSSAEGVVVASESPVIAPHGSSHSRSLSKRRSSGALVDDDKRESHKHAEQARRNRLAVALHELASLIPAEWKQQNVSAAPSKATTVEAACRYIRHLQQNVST"}
{"Oligonucleotide": "AAAGCGGTAATTTGATATGTGGGTGCAGATATCTAT", "fluorescence intensity [a.u.]": 4870}
{"Oligonucleotide": "CGCTTGTACAAGCTGAACGTGAGAAGCAACGATCCT", "fluorescence intensity [a.u.]": 6050}
{"Oligonucleotide": "GTCTTGTCTCATTTTCACGTGGGATTCCCCACTTCA", "fluorescence intensity [a.u.]": 12000}
{"Oligonucleotide": "CTCTTCAGAGGTAATTGCATGACAGCAAGATTCGCG", "fluorescence intensity [a.u.]": 4220}
{"Oligonucleotide": "AGCACCCAATTGGGCCATGTGTGTTTAACGCCGGGC", "fluorescence intensity [a.u.]": 8010}
{"Oligonucleotide": "CGGGGTTAAGTTTGCAAGGTGGGTGGCTTGCAGCAG", "fluorescence intensity [a.u.]": 4410}
{"Oligonucleotide": "TGCGCAACAACTTTTCACGTGCCATTATGTCTAGAA", "fluorescence intensity [a.u.]": 15400}
{"data": "Block 2", "target": "CCNE2, cyclin fold, Cln2 fusion (human)", "method": "yeast growth competition, sequencing", "sample": "yeast", "notes": "strong parent motif", "baseline": "not given", "reading": "higher = stronger binding", "starting sequence": "BRCA2 docking peptide (human); PSIKRNLLNEFDR"}
{"Substitution": "L8G", "normalised enrichment score": 0.306}
{"Substitution": "K4I", "normalised enrichment score": 0.439}
{"Substitution": "R5M", "normalised enrichment score": 0.786}
{"Substitution": "L7K", "normalised enrichment score": 0.955}
{"Substitution": "D12N", "normalised enrichment score": 1.92}
{"data": "Block 3", "target": "Histone acetyltransferase KAT6A, winged helix 2, GST fusion (KAT6A, Homo sapiens, UniProt Q92794, residues 85-181)", "method": "protein binding microarray", "form": "double-stranded DNA, one strand shown", "sample": "in vitro", "tested at": "not given", "notes": "8-mer, flanks averaged, mean of 2 arrays, mostly near background", "baseline": "not given", "reading": "higher = stronger binding", "Target sequence (chain)": "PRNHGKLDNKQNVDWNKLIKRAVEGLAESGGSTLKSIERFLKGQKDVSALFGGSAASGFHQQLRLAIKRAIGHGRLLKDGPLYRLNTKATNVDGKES"}
{"Oligonucleotide": "TACATCGA", "E-score": -0.133}
{"Oligonucleotide": "CCCAGATC", "E-score": -0.0547}
{"Oligonucleotide": "AATACTCT", "E-score": 0.022}
{"Oligonucleotide": "CACTCTCC", "E-score": -0.00536}
{"Oligonucleotide": "CGCCTTCA", "E-score": -0.067}
{"Oligonucleotide": "CACTCAGG", "E-score": 0.109}
{"Oligonucleotide": "CCGGGCAG", "E-score": 0.0725}
{"data": "Further values, each from its own experiment"}
{"Molecule": "PhoQ, residues 284 288 289 292 302 303 SCCLKL", "target": "PhoP, residues 12 14 15 18 19 SQCLL (Escherichia coli, UniProt P23836)", "test": "Sort-seq, measured: YFP reporter", "system": "E. coli", "setting": "PhoQ-PhoP variant library, with: 10 µM Mg2+", "how to read": "baseline: high Mg2+ state, higher = stronger signaling", "quantity": "fold induction", "result": 7.24}
